Literature values that unrelated publications cite.
Compare with care: the assays were run in different laboratories. ± marks the error that the study gave.
Organism: Plasmodium falciparum

SMILES = O=C(/C=C/c1ccc(Cl)c(Cl)c1)N1CCC(CCN2CCC(c3c[nH]c4cnccc34)CC2)CC1; conditions = gametocytes; IC50 = 200 nM
SMILES = CC1=C[C@@H](C)[C@H]2[C@@H]3C(=O)C(Cl)(Cl)C(=O)[C@H](C)C(=O)O[C@@H](C)/C=C/C=C\[C@@H](C)[C@@H]3C=C[C@@H]2C1; system = blood stage; IC50 = 9.1 nM
SMILES = COc1ccc2nc3cc(Cl)ccc3c(NCCN3CCN(C)CC3)c2c1; conditions = gametocytes; IC50 = 1880 nM
SMILES = COc1cc(O)c(-c2ccc(OC)c3c(O)cc(C)c(-c4cc(-c5c(O)cc(OC)c6c5C[C@H](C)N(C)[C@@H]6C)c5cc(C)cc(OC)c5c4O)c23)c2c1[C@@H](C)N(C)[C@H](C)C2; system = NF54; IC50 = 17 nM
SMILES = COC(=O)C1=CO[C@@H](C)[C@@H]2Cn3ccc4c5ccccc5nc-4c3C[C@H]12; system = D6; conditions = 72 h; IC50 = 48 nM
SMILES = O=C1c2ccccc2-[n+]2ccc3c([nH]c4ccccc43)c21; assay = parasite growth; system = K1; IC50 = 168 nM
SMILES = O=C(O)[C@@H]1Cc2c([nH]c3ccccc23)[C@@H](c2ccc(Cl)cc2)N1; assay = parasite growth; system = Dd2; IC50 = 1170 ± 60 nM
SMILES = Cn1cc2c3c1C(=O)c1[nH]cc(-c4ccc(O)cc4)c1C3=[N+](C)CC2; assay = parasite growth; system = 3D7, chloroquine-sensitive; IC50 = < 50 nM
SMILES = CC[C@H](C)[C@@H]1NC(=O)[C@H](CCC(N)=O)NC(=O)[C@H](CCC(N)=O)NC(=O)[C@@H]2CCCN2C(=O)[C@@H]2CCCN2C(=O)[C@H](CO)NC(=O)[C@H](CCSC)NC(=O)[C@H](CCCNC(=N)N)NC(=O)[C@H]([C@@H](C)O)NC(=O)[C@H]([C@@H](C)O)NC(=O)[C@H](Cc2ccccc2)NC(=O)[C@@H](NC(=O)[C@H](CO)NC(=O)[C@H](Cc2ccccc2)NC(=O)[C@H](CC(C)C)NC(=O)[C@@H]2CCCN2C(=O)[C@H](CC(C)C)NC(=O)[C@H](Cc2ccccc2)NC(=O)[C@H](CCC(=O)O)NC(=O)[C@H](C)NC(=O)[C@H](Cc2ccccc2)NC(=O)[C@@H](N)C(C)C)CSSC[C@@H](C(=O)N[C@@H](CC(C)C)C(=O)N[C@@H](CC(N)=O)C(N)=O)NC1=O; assay = parasite growth; system = 3D7; IC50 = ~30 nM
SMILES = O=C(O)[C@@H]1Cc2c([nH]c3ccccc23)[C@@H](c2ccccc2Cl)N1; assay = parasite growth; system = Dd2; IC50 = 3280 ± 990 nM
SMILES = O=C(C1CCN(c2nnnn2-c2ccccc2)CC1)N1CCc2ccccc2C1; system = 3D7; IC50 = ~1000 nM
SMILES = CC(C)C(C(=O)N[C@@H](Cc1ccccc1)[C@H](O)CN1CCN(Cc2ccc(Br)cc2)CC1)N1C(=O)c2ccccc2C1=O (stereo partly drawn); assay = parasite growth; system = 3D7; conditions = 48 h; IC50 = 1250 nM

For quick reference, copied from above:
SMILES = Cn1cc2c3c1C(=O)c1[nH]cc(-c4ccc(O)cc4)c1C3=[N+](C)CC2; assay = parasite growth; system = 3D7, chloroquine-sensitive; IC50 = < 50 nM
